Measured values pooled from the literature.
Numbered parts are unrelated; each lists some results of a single study.

Series 1
Target: RNA binding protein fox-1 homolog 2, RRM domain, GST-SBP tag (RBFOX2, Homo sapiens, UniProt O43251-10, residues 100-194)
Method: RNA Bind-n-Seq
Form: RNA
Medium: in vitro
Tested at: 365 nM
Notes: natural RNA segment, single round, ends assumed
Baseline: no-protein control
Direction: higher = stronger binding
Construct (chain): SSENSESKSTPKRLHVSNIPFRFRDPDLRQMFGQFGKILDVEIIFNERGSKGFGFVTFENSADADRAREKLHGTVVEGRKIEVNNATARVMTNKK
Sequence | RBNS enrichment (R)
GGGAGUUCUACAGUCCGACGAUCGUUUCCAAACCAGUGGUUUCUAUGUAGCUUUUCUAGUUCCUUGCUAUCUUCUCACCACUGGCUUGAGGUAGUGAUUUGGACUUUGCUCAUUAGAGAGCAUUAUCAGAGAUUGGAAUUCUCGGGUGCCAA | 0.321
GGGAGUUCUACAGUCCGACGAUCAAAAAAAGAGUCAGCCCUUGGCUUCUGCUUCAAACCCUCAAGAGGGGAAGCAACUCCGUGUGCCUGGGGUUCCCGAGGGAGCUGCUGGCUGACCUGGGCCCACAGAGCCUUGGAAUUCUCGGGUGCCAA | 0.298
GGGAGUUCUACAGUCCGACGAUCACACCUAACAUGAGACGUGGCAUGUGAGAUGAGACUUGGCAUGUGAGACAUAGGGUCACUAGAGACCCUUCUGGGUCAGAGGAGAGAGACUGAAUUGGACUAAACCCGUCUGGAAUUCUCGGGUGCCAA | 0.862
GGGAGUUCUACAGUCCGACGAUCGUUGUAUUGCUUUGCACAAAAUUAGGAACAGGUGUUUGACAAUUGAAUUUGUUUUCUGUGAAUUCUAACCUCUAAAGGCAUGCUUAGAGGUCAAGGACCUUCCUGUGUAGUGGAAUUCUCGGGUGCCAA | 16.8
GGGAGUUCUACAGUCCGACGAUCUUUUUAUAAGGAAAUGUUGGAGAGUUACAUCAUUGCUAAUGUAGAAAUGUUAAGUGGAAAAAUAUACAGUUUGGUAAAAUAAACUAGAUUCUACAUUUAUUUGUGGGUUUUGGAAUUCUCGGGUGCCAA | 0.601
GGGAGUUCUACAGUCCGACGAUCCUCUUUCUUUAACCAUUGUAUAUUUUCUUCCAUUCUUGUCAUUGGUCAAUAGGGGAGGGUAGAUUAGCUGCUCCAGAAUUCAAUAAAGUGUAAUAUUUCUAACGGUGACUUGGAAUUCUCGGGUGCCAA | 0.532
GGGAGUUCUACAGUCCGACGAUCAAGUGCUGGGUUCUCCAAGAGCGAUGGCGGCGUCUGUGUAGGUGCUCGCCCACCGUUACCCUCUUCUUGUAUCUGAAUAUCAGAAACUAGAAAGUCCAACAGUGACACUCUGGAAUUCUCGGGUGCCAA | 0.167
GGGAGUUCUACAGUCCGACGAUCUUUUUUAAUUGAUGGGAUACUAACCUUAAAUUCUAGCGUUGGUGCUUUGCACCAAGAGAAAGCUUUCCAAAAUUAACCUUCACAGCAGCGUUGUAAGUAACUGAGGUCCAUGGAAUUCUCGGGUGCCAA | 0.551
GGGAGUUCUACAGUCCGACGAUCAUAAUCAUGAGUCAUGCAGAGCCAAGAAAAGAAAUAUAUUAUGGUAUAUGUAAAGUGAUAUUUCGCUCUACAAGUUUGGCCUUAAUUAAACUCAUGAAUUAUAGGCAUUUUGGAAUUCUCGGGUGCCAA | 0.375
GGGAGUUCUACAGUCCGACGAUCUGAUUGAUUUUUAUGCUUGUUAGUGUAUUGCAAGAAACACAGAAAAUGUAGUUUUGUUUUAAUAAACAAAAAUUGAACAUACUCUUGAUGUGUUUGAUUUGUAUUUAAAAUGGAAUUCUCGGGUGCCAA | 2.2
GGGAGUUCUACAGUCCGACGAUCUGAAGGCCAAGUGAUGGCUUCUGUUCUGGUGGCUUGAACUAACAGGUGGUGUAUCGCCACCUGACUCCUUGUUUAAUGACAGAGGUCUGGGAUGUCACAGUCCAAAAGGAUGGAAUUCUCGGGUGCCAA | 0.23
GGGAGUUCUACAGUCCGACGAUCUUUCUGCUGUACUAUCUGGAUACUAAAAUGUUACGGAAGUAGCUCUUUGUUCUCCCUCACUCUGCCCUUAGUUAAUAGAAAUUCAGACUCGCCAAGUAAGGCUUCGUGCAUGGAAUUCUCGGGUGCCAA | 1.82

Series 2
Target: Histone acetyltransferase KAT6A, winged helix 2, GST fusion (KAT6A, Homo sapiens, UniProt Q92794, residues 85-181)
Method: protein binding microarray
Form: double-stranded DNA, one strand shown
Medium: in vitro
Tested at: not given
Notes: 8-mer, flanks averaged, mean of 2 arrays, mostly near background
Baseline: not given
Direction: higher = stronger binding
Construct (chain): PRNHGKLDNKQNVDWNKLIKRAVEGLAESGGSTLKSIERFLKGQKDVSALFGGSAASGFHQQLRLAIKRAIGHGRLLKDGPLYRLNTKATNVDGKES
Sequence | E-score
ACCAACGG | 0.127
AAAGCAGA | 0.0515
GGACATCC | 0.0944
TGCGTCAA | 0.0188
TCAGATGA | 0.0171
CTGGCTGC | 0.0279
GGTGGAGA | -0.171
GTACAGAC | -0.0327
ACGCTCAT | -0.125
CAAAGATA | 0.0558
GCCTACCA | -0.118
CTCAACTC | -0.0158
ATCTACAC | -0.0173
AGTAGGTA | -0.122
GCGCGCGC | 0.357
CAGGCAGG | -0.0552

Series 3
Target: Sal-like protein 4, full length isoform B (SALL4, Homo sapiens, UniProt Q9UJQ4-2, residues 1-616)
Method: universal PBM
Form: double-stranded DNA, one strand shown
Medium: in vitro
Tested at: not given
Notes: 8-mer, flanks averaged, mean of replicates
Direction: higher = stronger binding
Target sequence (chain): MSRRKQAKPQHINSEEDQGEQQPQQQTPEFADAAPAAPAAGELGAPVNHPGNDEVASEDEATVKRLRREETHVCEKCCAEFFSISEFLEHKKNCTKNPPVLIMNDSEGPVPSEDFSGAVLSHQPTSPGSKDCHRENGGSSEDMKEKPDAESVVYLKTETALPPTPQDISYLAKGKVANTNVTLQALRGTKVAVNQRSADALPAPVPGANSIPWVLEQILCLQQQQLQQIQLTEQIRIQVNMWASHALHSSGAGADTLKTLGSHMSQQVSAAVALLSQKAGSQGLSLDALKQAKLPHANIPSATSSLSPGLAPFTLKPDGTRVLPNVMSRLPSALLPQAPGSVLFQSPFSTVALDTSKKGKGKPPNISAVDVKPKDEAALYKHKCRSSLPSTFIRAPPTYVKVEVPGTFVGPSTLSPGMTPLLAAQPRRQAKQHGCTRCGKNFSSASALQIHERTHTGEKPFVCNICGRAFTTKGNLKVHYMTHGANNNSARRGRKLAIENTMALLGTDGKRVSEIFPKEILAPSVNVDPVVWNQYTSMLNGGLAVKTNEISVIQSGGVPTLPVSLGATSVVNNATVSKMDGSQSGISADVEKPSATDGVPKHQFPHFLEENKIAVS
Sequence | E-score
GCGTTCTA | -0.125
GCAGTGAC | -0.2
ATCAGGCC | -0.0934
GATCTTAC | 0.0501
CCGGCTTC | -0.391
CAGCATCG | -0.242
CTCCGGGC | -0.364
TAAAAATA | 0.406
AAATAGCG | 0.19
CTCCACAA | -0.0858
GCGTTGTA | 0.145
CTCGTCAA | -0.17
CCACAGCC | -0.299
CTGGCCGC | -0.189
CGACTTCA | -0.121
AGGGAATC | -0.15
CAGTTGGA | -0.0889
ATGACAGG | -0.0355
AACCCGGG | -0.308
CGAGTATC | -0.109
AGATGCAG | -0.0221

Series 4
Target: RING finger protein unkempt homolog, zinc fingers 1-6, GST-SBP tag (UNK, Homo sapiens, UniProt Q9C0B0, residues 30-357)
Chain of UniProt Q9C0B0 (30-357, looked up): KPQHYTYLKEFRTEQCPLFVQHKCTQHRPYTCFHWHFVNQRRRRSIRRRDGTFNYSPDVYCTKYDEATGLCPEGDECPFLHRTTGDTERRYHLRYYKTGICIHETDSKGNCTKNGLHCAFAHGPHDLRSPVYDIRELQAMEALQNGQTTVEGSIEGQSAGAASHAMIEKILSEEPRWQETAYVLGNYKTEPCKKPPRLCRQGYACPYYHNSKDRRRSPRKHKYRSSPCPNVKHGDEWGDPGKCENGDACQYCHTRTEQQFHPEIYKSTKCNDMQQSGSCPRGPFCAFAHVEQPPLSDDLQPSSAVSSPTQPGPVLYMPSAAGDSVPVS
Method: RNA Bind-n-Seq
Form: RNA
Medium: in vitro
Tested at: not given
Notes: RNA with constant flanks, ends assumed
Baseline: input RNA pool
Direction: higher = stronger binding
Sequence | bound/input enrichment [ratio]
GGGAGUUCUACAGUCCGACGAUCCUUUCUGUCCCCUCCUAUACAGUUUCCGUUUCUUUUUACACUUGCUUGCCCAGCCGUCUGCCGUACACCAGAUUCAGGUGUUUGCGCUGUGUAGAAUUUGUGUGCACAGAUACGUGCUUGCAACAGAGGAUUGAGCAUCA | 0.299
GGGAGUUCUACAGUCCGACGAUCGCAACCAAAGAUGUACAUAAAGGAGAGUCUGGAAGCCAGGAAGGGGGGGUAAAUAGUUUCCGUACCUUAAUUGGCCUCCCUUCAACCUCAGCUGUUACUUCACAGCCUAAAAGCUUUGAACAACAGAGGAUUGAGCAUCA | 0.181
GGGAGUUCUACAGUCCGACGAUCCCUGACAGUAUGCUGGCCCACAUGUUUAAGGACAAAGGUGUCUGGGGAAAUAAGCAAGAUCACCGAGGAGCUUUCUUAAUUGACCGAAGUCCUGAGUACUUCGAACCCAUUUUGAACUACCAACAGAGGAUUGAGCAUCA | 0.153
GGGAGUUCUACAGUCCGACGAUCUGAAGUGGUUUUUGUGGGUGUGAAACAAAUGGUGAGAAUUUGAAUUGGUCCCUCUUAUUACCGUAUUGAAAUUAAGUCUACUUAAUUUAUCAAGUCAUGUUCAUGCCCUGAUUUUAUAUACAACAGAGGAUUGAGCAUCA | 0.398
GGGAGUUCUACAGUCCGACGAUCCCAUAUGAAAUGUGUAGCAGUGGCUUGGUACAAGCACUUCUUACUGUGUUAAACAACCGCAUGGAUUUGGAUAUGAAACAAGAUUGUAGUCAACUGGUAGAAAGAAUAAAUGUUUUUAAACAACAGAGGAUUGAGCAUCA | 12.1
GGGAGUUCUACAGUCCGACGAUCGAGCAUAAAGCUGAGAAAGUCCCAGCCGUAGCUAACUACAUUAUGAAAAUACACAAUUUUACCCGCAAAUGCCUCUACUGUAAUCGCUAUUUGCCUACAGAUACCCUACUCAACCAUAUGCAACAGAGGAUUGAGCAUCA | 1.36
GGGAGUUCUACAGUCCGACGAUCUCCCCUUCUUUCUCUGCUGAUUUUGCACUUUUCUCUUUGCUCACCACCAAGUGUAAUCAACCGCAAAGCACUGACAGUUCAUAGCAGUAGUGAAAUCUGAAAUAACUAAGAAUUAAUCAGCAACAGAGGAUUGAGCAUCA | 0.276
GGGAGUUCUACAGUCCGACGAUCCCUUCUGCAUAAGGUUUUUUUGUAGUGUAAUGUCUUAAUCAUAGUCUACCAUCAAAUAUUUCCGGAGUAUCUUUAAUGUUUAGAUAGUAUAUUAGCAGCAUGCAAUAAUUACAUCAUAAGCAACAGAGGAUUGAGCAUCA | 0.639
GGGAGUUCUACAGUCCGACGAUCGAAGUUUGUAUCAACCCAUACCACUAUAAGAGAGUGGAGAGUCCAGUCUUACCUCCAGUAUCCGUGCCUCGUCAUAAUGAAUUCAAUCCACAACACAGCCUUCUGGUUCAGUUUAGGAACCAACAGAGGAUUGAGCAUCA | 1.88
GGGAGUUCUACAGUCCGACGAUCACGCAUGGAAUCUUCUCUGGCCCUGCCAUUUCUCGCAUCAACAAUGCAUGCUUUGAAGCAGCCGCCGUUACCAAUACCAUACCUCAGGAAGACAAGAUGAAACACUGCUCCAAAAUACAGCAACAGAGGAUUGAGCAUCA | 0.116
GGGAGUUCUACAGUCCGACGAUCGCCAUUGAUAGGAAGCGGCACCAUGUACUACAGACGGCUCAUCCCUCCCCUUUGUCAGUGUACCGAGGGUUCUUUGGAUGUAGACACUUUUCAAAGACCAAUGAGCUGCUGCAGAAGUCUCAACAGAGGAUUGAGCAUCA | 0.166

Repeated from above (series 2):
Sequence | E-score
GCCTACCA | -0.118
CTCAACTC | -0.0158
ATCTACAC | -0.0173
AGTAGGTA | -0.122
GCGCGCGC | 0.357
CAGGCAGG | -0.0552
